Measured values of several laboratories.
± marks the error that the study gave.

Compound | test | test system | conditions | endpoint | result
CCCCOC(=O)N1CCN(C(=O)[C@H](CP(=O)(O)O)NC(=O)c2cc(N3CC[C@H](OC)C3)nc(-c3ccccc3)n2)CC1 | refers to: Sodium | human, blood | 16 mg, 24 h | change from baseline | 0.1 ± 2 mmol/L
CCS(=O)(=O)Nc1ccc(Oc2ccc(F)cc2F)c(-c2cn(C)c(=O)c3[nH]ccc23)c1 |  | human, plasma | oral, 2.5 mg, cycle 1 day 8, geometric mean | dose-normalised Cmax | 10.8 ng/mL/mg
COc1cc(CCC(=O)O)ccc1O[C@@H]1O[C@H](C(=O)O)[C@@H](O)[C@H](O)[C@H]1O |  | human, cerebrospinal fluid | concentration not given, mean | CSF concentration | 1.7 nM
CN(CCC(=O)O)C(=O)c1ccc2c(c1)CC[C@@H]1[C@@H]2CC[C@]2(C)C(c3cncc(F)c3)=CC[C@@H]12 |  | postmenopausal women, plasma | 60 mg, single dose, median | Tmax | 2.02 h
O=C(O)c1cccc(C(=O)O)c1 |  | Bet/Gly deep eutectic solvent | 303.0 K | apparent dissolution enthalpy | 18.5 kJ/mol
COc1ccc([C@@H](O)c2cc(-c3ncnc4cc(N5CCOCC5)ccc34)c(F)cc2Cl)nn1 |  | locally advanced rectal cancer patients | 100 mg, together with: capecitabine and radiotherapy | diarrhoea TEAE incidence | 100%
CC(C)n1c(Nc2cccnc2)nc2cnc(Nc3ccc(N4CCN(C)CC4)cc3)nc21 | refers to: oral ulcers | healthy human, male | concentration not given, CTCAE grade 1-3 | subjects with TEAE | 11.9%
CC[C@@H]1CN(C(=O)NCC(F)(F)F)C[C@@H]1c1cnc2cnc3[nH]ccc3n12 | population PK model | human, plasma | oral, outliers excluded | Vc/F | 156 L
Cc1cc(NC(=O)c2cccc(NC(=O)/C=C/CN(C)C)c2)ccc1Nc1nccc(-c2cccnc2)n1 | metabolic stability | Wistar rat, male, primary hepatocytes | 1 µM, 20 min | compound remaining | 87.1%
CC1=C(c2cccc(O)c2)[C@H](c2ccc(OCCN3CC(CF)C3)cc2)Oc2ccc(O)cc21 |  | human, plasma | oral, 600 mg single dose, geometric mean | AUC(0-24 h) | 648 ng·h/mL
C[C@H]1CN(C(=O)CC#N)[C@]12CCN(c1ncnc3[nH]ccc13)C2 |  | human | oral, 1.5 mg single dose | participants with serious TEAEs | 0%
O=c1c2ccccc2oc2ccccc12 |  | tricaprin-tricaprylin mixture | 45 °C, tricaprin fraction 1.00 | solubility | 0.0351 mole fraction
CC(C)(C(=O)N1CCOc2c(C#N)cncc2C1)C(F)F |  | human, both sexes | oral, 40 mg single dose | subjects with headache TEAE | 0%
CN(CCC(=O)O)C(=O)c1ccc2c(c1)CC[C@@H]1[C@@H]2CC[C@]2(C)C(c3cncc(F)c3)=CC[C@@H]12 |  | premenopausal women with endometriosis pain, serum | 60 mg twice daily, end of treatment, completers, median | total bilirubin | 0.7 mg/dL
C[C@@H](Oc1ccc(S(C)(=O)=O)cc1C(=O)N1C[C@@H]2C[C@]2(c2cc(C(F)(F)F)on2)C1)C(F)(F)F |  | elderly humans, plasma | oral, 25 mg single dose, geometric mean | AUC(0-72 h) | 7 µM·h
Nc1c(CC(=O)O)cccc1C(=O)c1ccc(Br)cc1 |  | cynomolgus monkey hepatocytes | 4 °C, 10% monkey serum | passive uptake clearance | 2 µL/min/10⁶ cells
CCN(CC)CCNC(=O)c1c(C)[nH]c(/C=C2\C(=O)Nc3ccc(F)cc32)c1C |  | human, serum | 25 mg maintenance dose, 24 h post-dose | serum concentration | 30.5 ng/mL
COC(=O)Nc1cc(C(=O)Nc2ccccc2)cc2ccc(C(=N)N)cc12 |  | octanol/buffer | pH 11, urokinase ligand set | logP | 2.11
FC(F)(F)c1ccc(CNc2ccc(Cc3c[nH]c4ncc(Cl)cc34)cn2)cn1 |  | patients with advanced solid tumours | oral, 1000 mg/day, TGCT cohort, grade ≥3 | decreased appetite incidence | 0%
O=C(Cc1ccc(-c2cccs2)cc1)Nc1cc(C2CC2)[nH]n1 |  | octanol/buffer | pH 11 | logP | 4.19
C[C@@H](N)C1CCN(S(=O)(=O)c2cccc3cnccc23)CC1 |  | healthy volunteers | 150 mg, fasted | participants with nausea | 0%

Repeated from above:
Compound | test | test system | conditions | endpoint | result
COC(=O)Nc1cc(C(=O)Nc2ccccc2)cc2ccc(C(=N)N)cc12 |  | octanol/buffer | pH 11, urokinase ligand set | logP | 2.11
FC(F)(F)c1ccc(CNc2ccc(Cc3c[nH]c4ncc(Cl)cc34)cn2)cn1 |  | patients with advanced solid tumours | oral, 1000 mg/day, TGCT cohort, grade ≥3 | decreased appetite incidence | 0%
O=C(Cc1ccc(-c2cccs2)cc1)Nc1cc(C2CC2)[nH]n1 |  | octanol/buffer | pH 11 | logP | 4.19
